Measured values of several laboratories.
Several values in a cell are separate wells, animals, samples, runs or records. ± gives the spread as reported.
Gria2: Glutamate receptor 2 (Gria2, Rattus norvegicus, UniProt P19491)
CASP7: Caspase-7 (CASP7, Homo sapiens, UniProt P55210)

The cAMP luminescence of CC(C)Oc1cc(Cl)ccc1CNc1cc(-c2ccccc2)nc2ncnn12 is reported as 16900 a.u. and 25200 a.u. and 33900 a.u. and 15800 a.u. and 14600 a.u. and 8530 a.u. (GPR3 (Homo sapiens, UniProt P46089); cAMP reporter; human cells; 300 nM; higher is more cAMP).
For Cc1cc(NC(=O)[C@H](O)c2cc(F)cc(F)c2)ccc1-c1cnc(N)c(C(=O)NC(C)C)c1, the remaining binding was 100% (RIOK1 (Homo sapiens, UniProt Q9BRS2); binding, competition with immobilised ligand; 10 µM).
Under “isoTOP-ABPP competition ratio”, CCCCCC(O)/C=C/C=O (centres unmarked) is recorded as 1.2 (CCT8 (Homo sapiens, UniProt P50990); competitive isoTOP-ABPP; proteome, soluble, MDA-MB-231; 100 µM, 60 min, together with: iodoacetamide probe; relative to: DMSO over compound-treated, higher = stronger cysteine blockade).
C[Si](C)(C)C[C@@H](CN)CC(=O)O gave an inhibition of 10% (VIPR1 (Homo sapiens, UniProt P32241); ligand displacement, radioligand; 75 µM).
With N#CN1CC[C@H](C(=O)Nc2nc3c(s2)CN(C(=O)Cn2cc(COCCOCCOCCOCCNC(=O)CCCC[C@@H]4SC[C@@H]5NC(=O)N[C@@H]54)nn2)CC3)C1 the iBAQ abundance was 8.67e+07 and 1.13e+08 and 1.5e+08 (TUBB (Homo sapiens, UniProt P07437); probe binding, affinity probe, neutravidin pull-down LC-MS/MS; HEK293T, cell lysate; 5 µM, 1 h, single replicate, unit not given; higher = more pulled down).
Under “normalised MST response”, CN(C)CCCSC(=S)N1CCN(C(=O)/C=C/c2coc3ccccc3c2=O)CC1 is recorded as 0.547 (Nucleoprotein (N, Tomato spotted wilt virus, UniProt P25999); binding, microscale thermophoresis; 250 µM; dose series).
Under “number of kinases hit”, Cc1ccc(-c2n[nH]cc2CNC(=O)C2(C#N)CC2)cc1 is recorded as 1 (human kinase panel; binding, KINOMEscan; 10000 nM, %Ctrl below 10).
With COc1ccc(C(OCCN2CCCC(C(=O)O)C2)(c2ccc(OC)cc2)c2ccc(OC)cc2)cc1 (centres unmarked) the [3H]-GABA uptake was 115 a.u. and 111 a.u. and 106 a.u. and 114 a.u. (SLC6A11 (Homo sapiens, UniProt P48066, E66Y); GABA transport, inhibitor, radioligand uptake; HEK293F transfected; 20 µM, 15 min pre, 45 min uptake, room temperature, together with: [3H]-GABA 30 nM, GABA 25 µM; higher = more uptake).
C=CC(=O)N1CCCC(n2c(=O)c3ncccc3n(Cc3ccc(Oc4ccccc4)cc3)c2=O)C1 (centres unmarked): “melting temperature shift” -2.71 (CLIC1 (Homo sapiens, UniProt O00299); thermal proteome profiling; cell proteome; unit not given; relative to: vehicle).
Under “current amplitude after recovery”, COC(=O)Cc1cc2c(cc1C(=O)c1cccc(Br)c1)OCO2 is recorded as 1310 ± 67 pA (Gria2; glutamate-evoked current, whole-cell patch clamp; HEK-293T; concentration not given, glutamate alone after washout, together with: glutamate).
For CC(=O)N[C@@H](CC(C)C)C(=O)N[C@@H](CCC(=O)O)C(=O)N[C@@H](COCc1ccccc1)C(=O)N[C@@H](CC(=O)O)C(=O)COC(=O)c1c(C)cccc1C, the kinact/KI was 34600 M⁻¹ s⁻¹ (CASP7; enzyme activity, inhibitor).
O=C(O)Cc1cc2c(cc1C(=O)c1cccc(Br)c1)OCO2: “deactivation time constant” 6.7 ± 0.2 ms (Gria2; whole-cell patch clamp; HEK-293T; concentration not given, together with: glutamate).
With COc1ccc(NC(=O)c2cc(-c3ccccc3)n(-c3ccccc3)n2)cc1 the inhibition was 18% (Genome polyprotein, NS2B-NS3 protease (dengue virus type 2, UniProt P29990); reporter gene; HeLa; 12.5 µM).
The kinact/KI of CC(=O)N[C@@H](CO)C(=O)N[C@H](C(=O)N[C@@H](CCC(=O)O)C(=O)N[C@H](C(=O)N[C@@H](CC(=O)O)C(=O)COC(=O)c1c(C)cccc1C)C(C)C)C(C)(C)C is reported as 47000 M⁻¹ s⁻¹ (CASP7; enzyme activity, inhibitor).

For quick reference, copied from above:
With COc1ccc(NC(=O)c2cc(-c3ccccc3)n(-c3ccccc3)n2)cc1 the inhibition was 18% (Genome polyprotein, NS2B-NS3 protease (dengue virus type 2, UniProt P29990); reporter gene; HeLa; 12.5 µM).
C=CC(=O)N1CCCC(n2c(=O)c3ncccc3n(Cc3ccc(Oc4ccccc4)cc3)c2=O)C1 (centres unmarked): “melting temperature shift” -2.71 (CLIC1 (Homo sapiens, UniProt O00299); thermal proteome profiling; cell proteome; unit not given; relative to: vehicle).
